Measured values pooled from the literature.
Lines come from different studies, so protocols differ. Several values in a cell are separate wells, animals, samples, runs or records. ± marks the error that the study gave.

Under “percent of control”, `C=CC(=O)Nc1cccc(Cn2ncc3cnc(Nc4cnn(CCOC)c4)nc32)c1` is recorded as 100% (ERK4 human; binding, KINOMEscan; 100 nM; lower = stronger binding).
With `Nc1nc(-c2ccccc2)nc2[nH]nc(Nc3ccccc3C(F)(F)F)c12` the IC50 was 1700 nM (rhinovirus B42; viral cytopathic effect; HeLa).
For `Nc1ncc(-c2cc(-c3cnn(CC(F)(F)F)c3)ncc2F)nc1C(=O)NC1CNCC(F)C1` (stereo not shown), the remaining binding was 79% (MST2; KINOMEscan; 1 µM; reference: DMSO control).
`Cc1ncsc1-c1ccc(C(C)NC(=O)C2CC(O)CN2C(=O)C(NC(=O)CCCCCCCCCCN2CCCC(Nc3ncc(Cl)c(Nc4ccccc4S(=O)(=O)C(C)C)n3)C2)C(C)(C)C)cc1` (stereo not shown): “log2 fold change” -1.15 (22Rv1; RNA-seq, refers to: SIX5 mRNA; concentration not given; reference: DMSO).
`C=C(NC(=O)c1csc(-c2nc3c(cc2O)-c2nc(cs2)C(=O)NC(C(C)O)C(=O)NC(=C(C)OC)c2nc(cs2)C(=O)NC2c4nc(cs4)C(=O)NC(COC(=O)c4c5c6c(cccc6n4O)COC(=O)C(OC4CC(C)(O)C(N(C)C)C(C)O4)C2OC5)c2nc-3cs2)n1)C(N)=O` (stereo not shown): “lung bacterial load” 6.14 log CFU/g (Streptococcus pneumoniae; -25, immunocompromised mice, lung infection; 16 mg/kg/day, twice daily, 24 h post-dose).
With `Cc1ncsc1-c1ccc(CNC(=O)[C@@H]2C[C@@H](O)CN2C(=O)[C@@H](NC(=O)CN2CCN(C3CN(CCNC(=O)C[C@@H]4N=C(c5ccc(Cl)cc5)c5c(sc(C)c5C)-n5c(C)nnc54)C3)CC2)C(C)(C)C)cc1` the protein level was 117% and 138% and 94.3% and 103% (Spodoptera frugiperda; degrader, targeted LC-MS, refers to: BRD3; Sf9; 0.0001 µM).
For `C=CC(=O)N1[C@H](c2ccc3c(c2)OCO3)c2[nH]c3ccccc3c2C[C@@H]1C(=O)N1CCN(C)CC1`, the relative co-enrichment was 113% (human cyclin E1 N112C-3xFLAG:CDK2; co-IP with TMT proteomics, refers to: PCBP1; concentration not given, Q15365; reference: wild type DMSO).
`COc1ccc(C(=O)CCc2cc(C(CCc3ccc(O)cc3OC)c3ccc(O)cc3)c(O)cc2OC)cc1` (racemic) has a 5-HEPE level of 113 ± 40 pg/mL (human blood; 30 µM, with: A23187).
`COc1cc(N2CCN(C(=O)C3CCCN3)CC2)ccc1Nc1ncc(Cl)c(Nc2ccccc2P(C)(C)=O)n1` (stereo not shown) gave a tumour volume of 126 mm3 and 399 mm3 (NCI-H3122, mouse, H3122 xenograft; oral, 25 mg/kg every two days, 8 doses, 48 h).
The IC50 of `CNS(=O)(=O)Nc1nccc(Cc2c(C)c3ccc(Oc4ncccc4F)cc3oc2=O)c1F` is reported as 307 nM (NCI-H1693; cell viability; 7 days).
`Cc1c(C)c2cccnc2c2ncccc12.O=[N+]([O-])[O-].O=c1c(C=NN=C([S-])Nc2ccccc2)coc2ccccc12.[Cu+2]` — result for “supercoiled DNA remaining”: 0% (supercoiled pUC19 DNA; oxidative DNA cleavage; concentration not given, sodium azide 50 µM, with: ascorbic acid).
`Cc1cccc(Nc2n[nH]c3nc(-c4ccccc4)nc(N)c23)c1` gave an IC50 of 160 nM (rhinovirus B42; viral cytopathic effect; HeLa).
`CCN(CC)CC(=O)Nc1cccc(-n2cc(-c3ccc4ccc(-c5cn(-c6cccc(NC(=O)CN(CC)CC)c6)nn5)cc4c3)nn2)c1` has a fold regulation of -1.17 (RCC4; PCR angiogenesis array, refers to: FN1; 5 x IC50, 4 h, normoxia; reference: untreated).
The inhibition of `Cc1cc(NC2CCN(C)CC2)ccc1-c1cc2c(N3CCC[C@H](C(=O)NCc4ccc(OC(F)(F)F)cc4)C3)ncnc2[nH]1` is reported as 95.8% (NCI-H2228; cell growth or viability, MTT; 5 µg/mL, 72 h).
`Nc1nc(-c2ccccc2)nc2[nH]nc(Nc3cccc(F)c3F)c12` has an IC50 of 30 nM (coxsackievirus B3; viral cytopathic effect; HeLa).
For `COc1ccc(NC(=O)C2CCCN(c3ncnc4[nH]c(-c5ccc(NC6CCN(C)CC6)cc5C)cc34)C2)cc1` (stereo not shown), the inhibition was 71% (NCI-H2228; cell growth or viability, MTT; 0.2 µg/mL, 72 h).
The IC50 of `Nc1nc(-c2ccccc2)nc2[nH]nc(Nc3cc(F)ccc3F)c12` is reported as 150 nM (coxsackievirus B3; viral cytopathic effect; HeLa).
For `COC1CN([C@H]2CC[C@H]([C@@]3(C)Oc4c(Cl)cc(C(=O)NCc5c(SC)cc(C)[nH]c5=O)c(C)c4O3)CC2)C1`, “log2 fold change” read 2.29 (RNA-seq, refers to: IL15; human, whole blood; dose not given, 24 h; reference: pretreatment baseline).
With `Cn1cc(-c2cc3c(N4CCC[C@H](C(=O)NCc5ccc(OC(F)(F)F)cc5)C4)ncnc3[nH]2)cn1` the inhibition was 85.3% (NCI-H2228; cell growth or viability, MTT; 5 µg/mL, 72 h).
For `COc1cc(O)ccc1CCC(c1ccc(O)cc1)c1cc2c(c(C)c1O)OC(c1ccc(O)cc1)CC2` (mixture of isomers), the PGD2 level was 5 ± 2 pg/mL (human blood; 0.3 µM, with: A23187).
For `CC(=O)[O-].O.O.[O-]c1ccc(Br)cc1C=NCCN1CCOCC1.[Zn+2]`, the inhibition was 21.9% (nitric oxide scavenging; 120 µM).
Under “log2 fold change”, `CN1CCCNC(=O)c2cccc(c2)C(=O)NCCCN(C)CCCNc2cccc3c2C(=O)c2cccc(c2C3=O)NCCC1` is recorded as 1.16 (SAS; RNA-Seq, refers to: TBC1D30 mRNA; 1 µM, 6 h; reference: untreated cells).
`O=C(NCc1ccc(OC(F)(F)F)cc1)[C@H]1CCCN(c2ncnc3[nH]c(-c4cc(F)c(F)c(F)c4)cc23)C1` gave an inhibition of -6.73% (NCI-H2228; cell growth or viability, MTT; 0.008 µg/mL, 72 h).
Under “log2 fold change”, `c1ccc(-c2n[nH]cc2-c2ccnc3ccccc23)nc1` is recorded as -0.19 (TPK1 (Candida albicans); kinase binding, MIB/MS competition; Candida albicans lysate; 10 µM; reference: DMSO).
`CN1CCC[C@]1(C)/C=C/S(=O)(=O)NC(=O)Nc1c2c(cc3c1CCC3)CCC2` has an IL-18 inhibition of 130% (human, whole blood ex vivo; 100 mg single dose, 3 h, single ascending dose, with: LPS and ATP).

Repeated from above:
`COc1ccc(C(=O)CCc2cc(C(CCc3ccc(O)cc3OC)c3ccc(O)cc3)c(O)cc2OC)cc1` (racemic) has a 5-HEPE level of 113 ± 40 pg/mL (human blood; 30 µM, with: A23187).
`C=C(NC(=O)c1csc(-c2nc3c(cc2O)-c2nc(cs2)C(=O)NC(C(C)O)C(=O)NC(=C(C)OC)c2nc(cs2)C(=O)NC2c4nc(cs4)C(=O)NC(COC(=O)c4c5c6c(cccc6n4O)COC(=O)C(OC4CC(C)(O)C(N(C)C)C(C)O4)C2OC5)c2nc-3cs2)n1)C(N)=O` (stereo not shown): “lung bacterial load” 6.14 log CFU/g (Streptococcus pneumoniae; -25, immunocompromised mice, lung infection; 16 mg/kg/day, twice daily, 24 h post-dose).
`Cc1cccc(Nc2n[nH]c3nc(-c4ccccc4)nc(N)c23)c1` gave an IC50 of 160 nM (rhinovirus B42; viral cytopathic effect; HeLa).
